Assay results from different studies.
Each line is one published result; not all experiments were run side by side. “And” joins repeats or separate records; there may be more than shown.

CCCCCCCCCCC(=O)O[C@H]1CC[C@H]2[C@@H]3CCC4=CC(=O)CC[C@]4(C)[C@H]3CC[C@]12C — t1/2 (refers to: testosterone; human, plasma; oral, 237 mg): 16.2 h and 7.8 h and 4.5 h
CC(=O)c1c(C)c2cnc(Nc3ccc(C4CCN(CCS(C)(=O)=O)CC4)cn3)nc2n(C2CCCC2)c1=O — t1/2 (human, plasma; oral, 75 mg twice daily, day 1, single dose, together with: fulvestrant): 6.6 h
COc1ccc2c(c1)[C@]13CCCC[C@@H]1[C@H](C2)N(C)CC3 — T1/2 change (human female; dose not given, day 22; baseline: day 0): -19.9%
Cc1ccc(C(=O)N(CCCN)[C@@H](c2nc3cc(Cl)ccc3c(=O)n2Cc2ccccc2)C(C)C)cc1 — maximum inhibition (human coronavirus OC43; virus-induced cell killing; MRC-5; maximum over 10 doses): 0%
CCOC(=O)C1=C[C@@H](OC(CC)CC)[C@H](NC(C)=O)[C@@H](N)C1 — t1/2 (human, both sexes, plasma; oral, 150 mg, geometric mean, together with: alcohol): 3.4 h
Nc1ccccc1NC(=O)c1ccc(CNC(=O)OCc2cccnc2)cc1 — maximum inhibition (human coronavirus OC43; virus-induced cell killing; MRC-5; maximum over 10 doses): 0%
C[C@]1(CO)Cc2ncn(-c3ccc(C#N)c(Cl)c3)c2C(=O)O1 — t1/2 (human; oral, 10 mg, fed, single dose, geometric mean): 4.6 h
O=C(O)C(F)(F)C(F)(F)C(F)(F)C(F)(F)C(F)(F)C(F)(F)C(F)(F)F — t1/2 (two-compartment model; human, plasma; oral, 50 mg single dose, geometric mean): 2770 h
Cc1ncc2n1-c1ccc(Cl)cc1C(c1ccccc1F)=NC2 — t1/2 (human, plasma; oral, 2 mg, day 1): 4.4 h
Cc1nnc2n1-c1ccc(Cl)cc1C(c1ccccc1)=NC2 — T1/2 change (human female; dose not given, day 22; baseline: day 0): 1.44%
COC[C@@H](NC(C)=O)C(=O)NCc1ccccc1 — t1/2 (fluorescence quenching; human healthy male, plasma; oral, 100 mg single): 12 h
COc1ccc(C[C@@H]2NC(=O)[C@H]([C@@H](C)O)NC(=O)[C@@H]3[C@@H]4CCN3C(=O)[C@@H]3Cc5cn(c6ccc(F)cc56)CCCCCCN(Cc5ccc(cc5)CCNC(=O)[C@]5(C)CCCN5C2=O)C(=O)CCC(=O)N[C@@H](C)C(=O)N[C@H](CNC(=O)CCCCC[N+](C)(C)C)C(=O)N[C@@H](Cc2cccc(c2)CNC(=O)CO4)C(=O)N3)cc1 — t1/2 (human, plasma; oral, 100 mg, together with: sodium caprate 1800 mg): 56.8 h
